Experimental data collected from several papers.
A part holds a random share of what one study measured. Values joined by “and” are separate records of one study, mostly repeats; a detail may differ.
UniProt P10721, sequence (whole entry, unmodified, looked up): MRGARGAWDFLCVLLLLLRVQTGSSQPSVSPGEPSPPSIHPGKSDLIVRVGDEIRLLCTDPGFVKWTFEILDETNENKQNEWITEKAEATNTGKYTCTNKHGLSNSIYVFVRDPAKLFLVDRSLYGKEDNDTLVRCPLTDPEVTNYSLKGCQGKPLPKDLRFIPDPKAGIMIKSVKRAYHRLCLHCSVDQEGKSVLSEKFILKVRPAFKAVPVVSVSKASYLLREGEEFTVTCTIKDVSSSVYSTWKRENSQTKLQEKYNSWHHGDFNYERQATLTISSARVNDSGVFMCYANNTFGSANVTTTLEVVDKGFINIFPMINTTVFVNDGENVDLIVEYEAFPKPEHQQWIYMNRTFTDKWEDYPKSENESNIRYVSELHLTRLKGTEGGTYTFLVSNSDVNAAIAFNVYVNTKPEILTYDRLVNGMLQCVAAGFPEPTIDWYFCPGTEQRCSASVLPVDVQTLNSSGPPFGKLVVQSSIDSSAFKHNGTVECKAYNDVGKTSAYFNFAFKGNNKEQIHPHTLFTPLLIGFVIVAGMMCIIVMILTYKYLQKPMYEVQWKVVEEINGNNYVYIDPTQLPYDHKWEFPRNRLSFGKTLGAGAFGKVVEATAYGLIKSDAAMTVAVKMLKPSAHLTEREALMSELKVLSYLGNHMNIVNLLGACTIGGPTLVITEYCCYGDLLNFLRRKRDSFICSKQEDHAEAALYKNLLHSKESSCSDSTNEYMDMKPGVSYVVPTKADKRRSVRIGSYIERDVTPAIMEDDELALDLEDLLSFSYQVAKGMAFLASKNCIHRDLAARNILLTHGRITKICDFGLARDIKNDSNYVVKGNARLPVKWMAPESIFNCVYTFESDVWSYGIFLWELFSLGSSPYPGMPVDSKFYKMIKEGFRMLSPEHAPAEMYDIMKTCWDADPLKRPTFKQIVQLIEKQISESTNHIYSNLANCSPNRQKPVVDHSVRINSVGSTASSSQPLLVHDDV
UniProt Q9NR20, sequence (whole entry, looked up): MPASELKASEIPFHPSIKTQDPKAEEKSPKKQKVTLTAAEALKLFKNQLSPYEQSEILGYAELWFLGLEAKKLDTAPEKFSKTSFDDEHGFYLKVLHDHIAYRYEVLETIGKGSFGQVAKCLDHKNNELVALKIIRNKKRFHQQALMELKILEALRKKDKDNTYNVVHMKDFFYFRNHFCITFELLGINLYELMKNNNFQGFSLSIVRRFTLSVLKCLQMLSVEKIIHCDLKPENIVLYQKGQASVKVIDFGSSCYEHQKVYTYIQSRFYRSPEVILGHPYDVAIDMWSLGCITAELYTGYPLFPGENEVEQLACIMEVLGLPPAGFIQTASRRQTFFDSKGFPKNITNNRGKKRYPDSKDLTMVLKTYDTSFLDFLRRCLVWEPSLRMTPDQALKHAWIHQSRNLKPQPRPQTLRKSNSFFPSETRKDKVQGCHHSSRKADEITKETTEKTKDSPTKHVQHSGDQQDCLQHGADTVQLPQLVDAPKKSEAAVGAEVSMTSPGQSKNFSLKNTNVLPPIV
UniProt Q8TD19, sequence (whole entry, looked up): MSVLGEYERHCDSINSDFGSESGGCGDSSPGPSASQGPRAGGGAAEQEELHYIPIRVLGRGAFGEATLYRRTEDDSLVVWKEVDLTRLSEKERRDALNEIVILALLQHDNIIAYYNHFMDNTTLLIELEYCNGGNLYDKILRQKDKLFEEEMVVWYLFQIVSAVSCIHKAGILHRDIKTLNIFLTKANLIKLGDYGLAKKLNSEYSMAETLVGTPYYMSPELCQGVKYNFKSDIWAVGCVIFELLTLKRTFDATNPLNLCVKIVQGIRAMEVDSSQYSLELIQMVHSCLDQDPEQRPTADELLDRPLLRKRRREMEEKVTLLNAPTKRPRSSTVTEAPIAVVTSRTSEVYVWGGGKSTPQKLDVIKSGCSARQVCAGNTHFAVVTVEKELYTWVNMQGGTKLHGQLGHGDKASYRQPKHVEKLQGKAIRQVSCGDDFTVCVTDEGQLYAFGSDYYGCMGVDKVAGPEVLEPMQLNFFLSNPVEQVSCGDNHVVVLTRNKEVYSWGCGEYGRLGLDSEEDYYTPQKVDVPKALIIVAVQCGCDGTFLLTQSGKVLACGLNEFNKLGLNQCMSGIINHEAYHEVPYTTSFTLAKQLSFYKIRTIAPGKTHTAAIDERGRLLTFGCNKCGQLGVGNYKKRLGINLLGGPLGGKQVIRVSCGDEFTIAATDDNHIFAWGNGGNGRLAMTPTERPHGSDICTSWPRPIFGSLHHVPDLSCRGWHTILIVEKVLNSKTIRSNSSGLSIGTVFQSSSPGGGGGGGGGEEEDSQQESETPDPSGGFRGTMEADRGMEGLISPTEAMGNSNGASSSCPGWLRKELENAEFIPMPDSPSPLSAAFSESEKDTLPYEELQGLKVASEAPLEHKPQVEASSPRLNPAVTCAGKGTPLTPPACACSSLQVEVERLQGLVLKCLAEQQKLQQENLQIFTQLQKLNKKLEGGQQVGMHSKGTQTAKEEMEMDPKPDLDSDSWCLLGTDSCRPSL
UniProt P50613, sequence (whole entry, looked up): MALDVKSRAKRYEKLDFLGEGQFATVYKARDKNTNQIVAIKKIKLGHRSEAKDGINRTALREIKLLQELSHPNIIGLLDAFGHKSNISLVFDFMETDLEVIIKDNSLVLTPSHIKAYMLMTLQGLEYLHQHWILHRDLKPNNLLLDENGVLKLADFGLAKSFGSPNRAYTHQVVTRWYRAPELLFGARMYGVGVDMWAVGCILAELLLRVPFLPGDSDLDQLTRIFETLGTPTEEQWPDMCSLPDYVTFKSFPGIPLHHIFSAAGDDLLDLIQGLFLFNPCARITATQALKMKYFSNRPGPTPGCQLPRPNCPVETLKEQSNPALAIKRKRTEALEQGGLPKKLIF
UniProt P07949, sequence (whole entry, looked up): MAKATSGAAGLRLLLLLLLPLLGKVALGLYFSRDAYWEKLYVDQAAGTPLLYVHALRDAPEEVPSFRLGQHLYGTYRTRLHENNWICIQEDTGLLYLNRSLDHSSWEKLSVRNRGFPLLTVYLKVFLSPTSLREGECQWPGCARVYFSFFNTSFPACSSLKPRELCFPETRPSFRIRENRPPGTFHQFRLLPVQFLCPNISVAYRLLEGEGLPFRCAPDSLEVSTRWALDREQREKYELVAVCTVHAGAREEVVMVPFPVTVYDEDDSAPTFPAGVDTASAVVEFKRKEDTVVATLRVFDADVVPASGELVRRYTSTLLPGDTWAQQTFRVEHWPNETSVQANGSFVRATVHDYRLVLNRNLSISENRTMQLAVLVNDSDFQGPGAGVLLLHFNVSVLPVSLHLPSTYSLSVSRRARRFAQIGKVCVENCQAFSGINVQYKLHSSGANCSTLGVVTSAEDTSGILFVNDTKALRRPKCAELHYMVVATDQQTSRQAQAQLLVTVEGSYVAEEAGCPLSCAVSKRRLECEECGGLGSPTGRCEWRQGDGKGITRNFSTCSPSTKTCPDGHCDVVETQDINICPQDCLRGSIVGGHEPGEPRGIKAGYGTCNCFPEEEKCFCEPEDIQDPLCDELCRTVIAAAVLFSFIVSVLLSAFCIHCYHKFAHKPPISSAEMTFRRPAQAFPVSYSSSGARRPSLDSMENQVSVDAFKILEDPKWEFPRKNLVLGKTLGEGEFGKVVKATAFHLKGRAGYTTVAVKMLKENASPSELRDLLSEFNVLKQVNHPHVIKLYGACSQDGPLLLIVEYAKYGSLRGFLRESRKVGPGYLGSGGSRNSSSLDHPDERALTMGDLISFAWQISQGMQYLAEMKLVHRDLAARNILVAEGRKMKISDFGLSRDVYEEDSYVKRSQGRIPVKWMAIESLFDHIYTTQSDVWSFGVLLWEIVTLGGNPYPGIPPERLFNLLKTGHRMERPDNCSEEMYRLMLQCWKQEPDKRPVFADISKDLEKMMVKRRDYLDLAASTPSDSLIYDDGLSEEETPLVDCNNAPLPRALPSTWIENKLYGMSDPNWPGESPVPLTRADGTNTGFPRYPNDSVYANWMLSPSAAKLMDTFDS
UniProt Q07912, sequence (whole entry, looked up): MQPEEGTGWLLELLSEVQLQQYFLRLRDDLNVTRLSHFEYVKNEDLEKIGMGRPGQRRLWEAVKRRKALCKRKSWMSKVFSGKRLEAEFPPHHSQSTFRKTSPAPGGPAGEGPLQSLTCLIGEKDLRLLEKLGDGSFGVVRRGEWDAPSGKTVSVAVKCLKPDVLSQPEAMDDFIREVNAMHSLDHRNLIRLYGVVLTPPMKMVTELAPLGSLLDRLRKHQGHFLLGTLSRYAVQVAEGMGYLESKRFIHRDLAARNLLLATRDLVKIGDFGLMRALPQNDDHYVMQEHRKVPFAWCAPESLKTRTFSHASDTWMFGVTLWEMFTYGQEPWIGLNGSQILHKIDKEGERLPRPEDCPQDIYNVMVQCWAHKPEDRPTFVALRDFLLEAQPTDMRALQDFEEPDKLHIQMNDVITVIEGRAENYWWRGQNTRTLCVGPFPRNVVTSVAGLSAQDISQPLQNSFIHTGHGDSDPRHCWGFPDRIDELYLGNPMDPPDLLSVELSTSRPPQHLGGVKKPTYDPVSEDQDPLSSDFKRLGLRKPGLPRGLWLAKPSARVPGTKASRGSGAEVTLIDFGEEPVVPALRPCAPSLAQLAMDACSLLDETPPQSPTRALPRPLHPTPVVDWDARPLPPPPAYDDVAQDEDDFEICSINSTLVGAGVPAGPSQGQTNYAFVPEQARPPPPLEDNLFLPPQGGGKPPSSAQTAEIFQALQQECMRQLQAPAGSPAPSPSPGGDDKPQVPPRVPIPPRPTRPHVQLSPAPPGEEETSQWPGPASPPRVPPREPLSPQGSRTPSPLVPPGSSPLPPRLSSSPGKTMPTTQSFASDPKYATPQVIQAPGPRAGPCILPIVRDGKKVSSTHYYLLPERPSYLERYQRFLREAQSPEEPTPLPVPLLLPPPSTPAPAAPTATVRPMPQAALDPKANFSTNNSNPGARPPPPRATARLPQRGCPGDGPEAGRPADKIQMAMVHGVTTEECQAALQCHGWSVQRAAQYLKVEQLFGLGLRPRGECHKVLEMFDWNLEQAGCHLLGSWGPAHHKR

Set 1 — effect on: binding; action: competitor; method: NanoBRET; cell line: HEK293
SMILES: CC(=O)N1CCN(c2nc(OC[C@@H]3CCCN3C)nc3c2CCN(c2cccc4cccc(Cl)c24)C3)C[C@@H]1CC#N
KRAS G12D: GTPase KRas (KRAS, Homo sapiens, UniProt P01116, G12D)
KRAS Q61R: GTPase KRas (KRAS, Homo sapiens, UniProt P01116, Q61R)
target | setting | normalized BRET
KRAS G12D | 412 nM | 98% and 91.4% and 101%
GTPase KRas (KRAS, Homo sapiens, UniProt P01116, G13D) | 3.7 µM | 28.1% and 20.8% and 26.1%
KRAS Q61R | 45.7 nM | 95.5% and 100% and 107%
GTPase KRas (KRAS, Homo sapiens, UniProt P01116, Q61H) | 3.7 µM | 29.7% and 31.3% and 30.1%
KRAS G12D | 33.3 µM | 61.9% and 62.6% and 61.4%
KRAS Q61R | 5.08 nM | 98.7% and 103% and 107%

Set 2 — cell line: mouse MPNST tumor cells; method: high-content nuclear imaging; measured: cell number; concentration: 10 µM; time: 12 h; setting: mean of 2 replicates; relative to: plate mean; reading: higher = more cells
SMILES | nuclei count
COC(=O)c1cnn(-c2ccc(F)cc2F)c1C=NNC(=S)NC(C)(C)C | 0.0336 z-score
COc1c(Cl)cc2c([nH]c3cnccc32)c1NC(=O)c1cccnc1C | 0.953 z-score
O=C(NCCO)c1cc(C(=O)NCCO)cc(C(=O)NCCO)c1 | 1.07 z-score
CCn1c(-c2nonc2N)nc2cnc(Oc3cccc(NC(=O)c4ccc(OCCN5CCOCC5)cc4)c3)cc21 | -6.21 z-score
O=C(NNC(=O)c1ccc(CNS(=O)(=O)c2ccc(F)c(Cl)c2)cc1)c1ccccc1 | 3.55 z-score
COc1ccc(Cl)cc1C(=O)NCCc1ccc(S(=O)(=O)NC(=O)NC2CCCCC2)cc1 | 1.64 z-score and 1.19 z-score
COC1=C(OC)C(=O)C(CCCCCCCCCCO)=C(C)C1=O | 0.996 z-score
CC(=O)N(CC(O)CN(C(C)=O)c1c(I)c(C(=O)NCC(O)CO)c(I)c(C(=O)NCC(O)CO)c1I)c1c(I)c(C(=O)NCC(O)CO)c(I)c(C(=O)NCC(O)CO)c1I (stereo not shown) | -0.762 z-score
NC(=O)c1ncn([C@@H]2O[C@H](CO)[C@@H](O)[C@H]2O)n1 | -0.172 z-score and 0.442 z-score and 0.241 z-score
COc1ccc(C2CNC(=O)C2)cc1OC1CCCC1 (stereo not shown) | 0.779 z-score
COc1ccc(Oc2c(Cl)cnn(C3c4ccccc4-c4ccccc43)c2=O)cc1 | -2.43 z-score
CN1CCCN=C1COC(=O)C(O)(c1ccccc1)C1CCCCC1 (stereo not shown) | 0.553 z-score

Set 3 — effect on: cell-free assay; method: competition with immobilised ligand; concentration: 1 µM
Compound: N#Cc1ccc(Nc2ccc3[nH]c(=O)[nH]c3c2)c(Cl)c1
target | remaining binding
Non-receptor tyrosine-protein kinase TNK1 (TNK1, Homo sapiens, UniProt Q13470) | 56%
Ribosomal protein S6 kinase alpha-3, N-terminal kinase domain (RPS6KA3, Homo sapiens, UniProt P51812) | 100%
Epidermal growth factor receptor (EGFR, Homo sapiens, UniProt P00533, L861Q) | 100%
Mast/stem cell growth factor receptor Kit (KIT, Homo sapiens, UniProt P10721, V559D/V654A) | 96%
Activated CDC42 kinase 1 (TNK2, Homo sapiens, UniProt Q07912) | 90%
Fibroblast growth factor receptor 2 (FGFR2, Homo sapiens, UniProt P21802) | 100%
Mast/stem cell growth factor receptor Kit (KIT, Homo sapiens, UniProt P10721, T670I/V559D) | 100%

Set 4 — effect on: enzyme activity; action: inhibitor; concentration: 0.5 µM; relative to: control
SMILES: Cn1cc(/C=C2\C(=O)Nc3ccc(S(N)(=O)=O)cc32)c2ccccc21
target | remaining activity
Proto-oncogene tyrosine-protein kinase receptor Ret (RET, Homo sapiens, UniProt P07949) | 1.93%
Calcium/calmodulin-dependent protein kinase type 1G (CAMK1G, Homo sapiens, UniProt Q96NX5) | 89.2%
Casein kinase II subunit alpha' (CSNK2A2, Homo sapiens, UniProt P19784) | 66%
Serine/threonine-protein kinase D1 (PRKD1, Homo sapiens, UniProt Q15139) | 80%
Rho-associated protein kinase 2 (ROCK2, Homo sapiens, UniProt O75116) | 41%
Dual specificity tyrosine-phosphorylation-regulated kinase 4 (DYRK4, Homo sapiens, UniProt Q9NR20) | 73.7%
Mitogen-activated protein kinase 10 (MAPK10, Homo sapiens, UniProt P53779) | 93.1%
Cyclin-dependent kinase 7 (CDK7, Homo sapiens, UniProt P50613) | 73.7%
G protein-coupled receptor kinase 5 (GRK5, Homo sapiens, UniProt P34947) | 86.3%
Proto-oncogene tyrosine-protein kinase ROS (ROS1, Homo sapiens, UniProt P08922) | 82.2%
Mitogen-activated protein kinase kinase kinase 8 (MAP3K8, Homo sapiens, UniProt P41279) | 96.8%
Aurora kinase A (AURKA, Homo sapiens, UniProt O14965) | 20%
Serine/threonine-protein kinase N2 (PKN2, Homo sapiens, UniProt Q16513) | 81.8%
Myotonin-protein kinase (DMPK, Homo sapiens, UniProt Q09013) | 106%
Serine/threonine-protein kinase BRSK1 (BRSK1, Homo sapiens, UniProt Q8TDC3) | 47.8%
STE20-like serine/threonine-protein kinase (SLK, Homo sapiens, UniProt Q9H2G2) | 28.6%
Cyclin-dependent kinase 2, with cyclin A (CDK2, Homo sapiens, UniProt P24941) | 66.2%
NT-3 growth factor receptor (NTRK3, Homo sapiens, UniProt Q16288) | 1.18%
Calcium/calmodulin-dependent protein kinase type 1D (CAMK1D, Homo sapiens, UniProt Q8IU85) | 69.6%
Epidermal growth factor receptor (EGFR, Homo sapiens, UniProt P00533) | 77.5%
Protein-tyrosine kinase 2-beta (PTK2B, Homo sapiens, UniProt Q14289) | 43.1%
Homeodomain-interacting protein kinase 3 (HIPK3, Homo sapiens, UniProt Q9H422) | 105%
Mitogen-activated protein kinase kinase kinase 2 (MAP3K2, Homo sapiens, UniProt Q9Y2U5) | 92.1%
Serine/threonine-protein kinase Nek9 (NEK9, Homo sapiens, UniProt Q8TD19) | 67.3%
